# Results gathered from unrelated publications.
# Each numbered part is a random draw from the data of one study; scales do not carry over between parts.

# Sample 1
# Target: RING finger protein unkempt homolog, zinc fingers 1-6, GST-SBP tag (UNK, Homo sapiens, UniProt Q9C0B0, residues 30-357)
# Method: RNA Bind-n-Seq
# Form: RNA
# Matrix: in vitro
# Tested at: not given
# Setting: RNA with constant flanks, human-mouse chimeric sites, ends assumed
# Reference: input RNA pool
# Direction: higher = stronger binding
# Target sequence (chain): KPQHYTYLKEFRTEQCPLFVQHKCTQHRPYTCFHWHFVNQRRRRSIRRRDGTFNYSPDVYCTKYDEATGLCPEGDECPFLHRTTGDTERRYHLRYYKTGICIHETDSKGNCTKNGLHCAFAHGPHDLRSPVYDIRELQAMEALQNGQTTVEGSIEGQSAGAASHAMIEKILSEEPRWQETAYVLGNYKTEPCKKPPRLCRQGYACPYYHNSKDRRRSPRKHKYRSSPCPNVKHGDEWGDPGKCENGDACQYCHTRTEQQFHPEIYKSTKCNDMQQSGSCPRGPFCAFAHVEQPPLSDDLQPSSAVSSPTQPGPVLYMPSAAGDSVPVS
Strand,bound/input enrichment [ratio]
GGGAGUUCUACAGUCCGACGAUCGAUCUCGGGCCCUCCCCAGGGGCCUCCUUUCGUAUAGUAACUGUCAGUGCAUCAGAUACUUUCAGCUGCAACUCCCUACUGGGUGGGGCACCCAUUUCAGGCAGAAGGUUUUGGUACCCUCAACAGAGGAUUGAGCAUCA,0.256
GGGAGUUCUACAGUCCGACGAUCGAUCAUGAACCACCAUCCAGAAAUGAAAUGAGAUUACCCAAGACGAGCAAAACAGCUGCGCUACAGAAAAGUAAACUUAACCUUGCAGAGUUCCUUAAUGAAGAUACAAGUUAAGAGAGCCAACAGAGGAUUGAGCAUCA,0.216
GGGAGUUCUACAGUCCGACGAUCUGUAGUUUCUUGAUUUAUCAUUUUUCUCUUUUCUUUCAGAUCGUCAGGAAAAGCCUAAAGAUUAGACUGUAAGAAAAACAGAAGCCAUGUUUCGAAGACCUGUGUUACAGGUAUUUCGUCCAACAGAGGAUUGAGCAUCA,0.203
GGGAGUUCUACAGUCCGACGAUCAGGAGGAGGUUAAAGGGUGAGAGUGGGGUGGAAGACUGUGUCAUGGCCCUAGAAACCCUGUUCAGUGUCCUGCUUUCUCUGUGCAGACUGAUGGCCCCUUACACGCCCUUUCUGACUGAGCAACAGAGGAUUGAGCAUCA,0.0503
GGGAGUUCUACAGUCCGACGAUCGAAACAUUUAAAUUUAAAGAAGCUGUUGUUCUAGGAAGUACGGACUUUCUAGAAGAUGAUAUAGAGAAAAUUGUAGAAGAACUGGGGAAAGAGUAUAAAGGCAAUGCCUACCAUCUGAUGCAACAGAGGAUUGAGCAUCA,1.44
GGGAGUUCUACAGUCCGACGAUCGCUGAAAAUGAAGAAGAGGCAGCUGAUGUCUGGUACAACCUGGGGCACAUAGCUGUGGGAAUCGGAGAUACAAACUUGGCCCAUCAGUGCUUCAGGCUGGCCCUGGUCAACAACAACCACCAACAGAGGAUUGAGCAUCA,0.156

# Sample 2
# Target: Interferon regulatory factor 5, full length, phosphomimetic (IRF5, Homo sapiens, UniProt Q13568-2, residues 1-514, K96S/S451D/S453D/S456D/S462D)
# Method: protein-binding microarray
# Form: double-stranded DNA, one strand shown
# Matrix: in vitro
# Tested at: 250 nM
# Setting: 60-bp whole probe
# Together with: salmon DNA 0.4 mg/ml
# Reference: random background probes
# Direction: higher = stronger binding
# Constant ends, left off below: GCCTAGCAC … GTCTTGATTCGCTTGACGCTGCTG
Strand,log fluorescence [z-score]
TTATGTTTCCTTTCCCTTTAGTGCTAG,2.21
GACGGGCTGGACTATCGGGACGTGCTA,0.434
GACGGTTTCCTTCTCCTTACGTGCTAG,1.09
GACGTTTTCGGGTTTCGAGACGTGCTA,6.48
TTAGGTTTCCTTTCCCTTTGGTGCTAG,2.05
TTAGGTTTCGGTCGCGGTTAGTGCTAG,10.1
TCAGTTCTTTTTTTCAAACTGTGCTAG,0.697
AACGGTTTCGACACTGGGGACGTGCTA,5.11
TCAAATTTCCCACTTTCACTGTGCTAG,4.52
TTAGATATCAGCATCGATTAGTGCTAG,1.22
ATCCTTGTCCCTCCGGGAGCGTGCTAG,-0.366
GACGGTATCTACACTGGGGACGTGCTA,-0.0642
GACGATTTCGGGTTTCCAGACGTGCTA,3.56
GAAAGAATCACAACTAGGAAGGTGCTA,2.22
GACGGTATCGATTATCGGGACGTGCTA,6.21

# Sample 3
# Target: RNA binding protein fox-1 homolog 2, RRM domain, GST-SBP tag (RBFOX2, Homo sapiens, UniProt O43251-10, residues 100-194)
# Method: RNA Bind-n-Seq
# Form: RNA
# Matrix: in vitro
# Tested at: 365 nM
# Setting: natural RNA segment, single round, ends assumed
# Reference: no-protein control
# Direction: higher = stronger binding
# Construct (chain): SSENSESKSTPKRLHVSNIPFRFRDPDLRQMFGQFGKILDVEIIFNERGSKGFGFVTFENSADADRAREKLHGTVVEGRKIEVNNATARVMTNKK
Strand,RBNS enrichment (R)
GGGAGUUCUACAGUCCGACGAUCAGUUAUAUAACUUUAUUAUGAAUAUGCUGUGAUCUUCAUUUGAUGGAACUGUGCAAGAAAAGAACAAGGAAAAAUGGAUGUUUCGCUGCAGGAUUAAGUUACAAUUAUCUUGGAAUUCUCGGGUGCCAA,0.443
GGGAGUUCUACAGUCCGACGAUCAUCAUCUGUGGUGGGAAAAGCUAUGUAAAUAGGUAGAUUGUAUAGAGAGACUAUCUUGUGUUGUGCCUGUAUGAAUUUUUAAAAGUUGUUGACUGGAUUUUGCAAAAGGAUGGAAUUCUCGGGUGCCAA,1.01
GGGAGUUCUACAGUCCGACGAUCUUCUCUUCCCGCAGACAGUCCCACACAUCAGCCUCUACUCCUUCCACCACUGCAAACCCCCAAAUUGUAUGGAAGCCCCACACAGAUAGGGCCAAGCUAUAGAGGCAUGAUGGAAUUCUCGGGUGCCAA,0.578
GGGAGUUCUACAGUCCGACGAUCAGGCUGGGCCACUCUGGUUAUGCACAGUCAGGCAAACUGUCCUUGUAGACGAGUCCCCGACUCUGGGAUACAUGAGGAUCAAUGCCCGUUUUCUCCCCGUGUGCUUUCCUUGGAAUUCUCGGGUGCCAA,0.323
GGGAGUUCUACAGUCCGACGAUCCUGUAAGACAGUCCUUCAAGUUUUUACACAGAAGAGAAUUUUGAGUGUCCUCUCUAUGUUUCAAAUAGCAAAUCUUGUUCAUUAAAAUACUUAUUAAAAGAUUUGAAUACUGGAAUUCUCGGGUGCCAA,0.482
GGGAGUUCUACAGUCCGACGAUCGUGUCAGACACUCAACUGACAUUACUACUUUAGUUCCUUUUGCUUUUUUCAUUUAUCUGUGGAAACAACAGAGGUCUCUCUCUAAACCUGUUUUGUGUCAGUUUGGUGUGUGGAAUUCUCGGGUGCCAA,0.265
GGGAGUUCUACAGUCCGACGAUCAGUUUUAAAACUCUUGCCAGUUACCACUUUAUCCAAUUUGCUAUCAUUUUCGUAUUAUCAGCUAUCGCCCUGUAAAAUAUUCAAAACUAGCUAUUUCUAAAGUAAACAUUUGGAAUUCUCGGGUGCCAA,0.485
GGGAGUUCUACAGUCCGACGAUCCCUCAGGACUGUUUUUGGGGGGCUGACUUGUCUUUCUACGUACGUACUUCCAGGCUGCAAGGUUUUGAAAUUUUCUGUACAGUUUGUGAGGACAUUUGCACUUUGCCACUUGGAAUUCUCGGGUGCCAA,0.401

# Sample 4
# Target: Sal-like protein 4, full length isoform B (SALL4, Homo sapiens, UniProt Q9UJQ4-2, residues 1-616)
# Method: universal PBM
# Form: double-stranded DNA, one strand shown
# Matrix: in vitro
# Tested at: not given
# Setting: 8-mer, flanks averaged, mean of replicates
# Direction: higher = stronger binding
# Residues (chain): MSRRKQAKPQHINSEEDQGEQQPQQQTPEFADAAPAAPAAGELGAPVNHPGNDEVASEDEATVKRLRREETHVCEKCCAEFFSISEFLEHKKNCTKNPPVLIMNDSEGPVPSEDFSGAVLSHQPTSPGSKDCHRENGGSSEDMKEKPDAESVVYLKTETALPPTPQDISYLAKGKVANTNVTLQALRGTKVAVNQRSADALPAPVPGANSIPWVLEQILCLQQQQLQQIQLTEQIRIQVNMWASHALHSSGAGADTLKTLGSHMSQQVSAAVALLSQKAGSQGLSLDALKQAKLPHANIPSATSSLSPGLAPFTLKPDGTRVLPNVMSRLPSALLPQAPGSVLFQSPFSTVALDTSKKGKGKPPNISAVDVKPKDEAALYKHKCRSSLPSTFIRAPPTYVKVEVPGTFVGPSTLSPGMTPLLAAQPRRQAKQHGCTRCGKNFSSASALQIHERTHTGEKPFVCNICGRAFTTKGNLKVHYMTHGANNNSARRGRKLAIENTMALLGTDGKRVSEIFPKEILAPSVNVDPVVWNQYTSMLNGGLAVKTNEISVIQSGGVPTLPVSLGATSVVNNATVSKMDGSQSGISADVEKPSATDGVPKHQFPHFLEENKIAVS
Strand,E-score
CAGGCGTC,-0.274
CTCATCGC,-0.124
ATGTATTC,0.128
TCCAGGCA,0.0759
CCTTCCCA,-0.115
CAGATTTA,0.205
AAAGTTGC,-0.0815
CCGGAAAG,-0.223
CGTACGAG,-0.0912
